Experimental data collected from several papers.
A part holds a random share of what one study measured.

Series 1
Target: Replicase polyprotein 1ab, main protease (rep, Severe acute respiratory syndrome coronavirus 2, UniProt P0DTD1)
Observed: enzyme activity
Mode: inhibitor
Tested at: 20 µM
Setting: primary screen
Compound	inhibition
CCN(CC)C(=S)SSC(=S)N(CC)CC	99.7%
COc1cc(CC2NCCc3cc(O)c(O)cc32)cc(OC)c1OC (stereo not shown)	73.9%
Sc1nnc(-c2ccccc2Cl)o1	67%
CC(C)Nc1cccnc1N1CCN(C(=O)c2cc3cc(NS(C)(=O)=O)ccc3[nH]2)CC1	82%

Series 2
Cell line: HEK-293T-ACE2
Tested at: concentration not given
Relative to: vehicle
Compound	cell number [%]
CCC[C@H](NC(=O)[C@@H]1[C@H]2CCC[C@H]2CN1C(=O)[C@@H](NC(=O)[C@@H](NC(=O)c1cnccn1)C1CCCCC1)C(C)(C)C)C(=O)C(=O)NC1CC1	101
CCCS(=O)(=O)Nc1ccc(F)c(C(=O)c2c[nH]c3ncc(-c4ccc(Cl)cc4)cc23)c1F	103
CC(C)C[C@H](NC(=O)[C@H](CCc1ccccc1)NC(=O)CN1CCOCC1)C(=O)N[C@@H](Cc1ccccc1)C(=O)N[C@@H](CC(C)C)C(=O)[C@@]1(C)CO1	75.6

Series 3
Target: Sal-like protein 4, full length isoform B (SALL4, Homo sapiens, UniProt Q9UJQ4-2, residues 1-616)
Technique: universal PBM
Molecule type: double-stranded DNA, one strand shown
Matrix: in vitro
Tested at: not given
Setting: 8-mer, flanks averaged, mean of replicates
Reading: higher = stronger binding
Residues (chain): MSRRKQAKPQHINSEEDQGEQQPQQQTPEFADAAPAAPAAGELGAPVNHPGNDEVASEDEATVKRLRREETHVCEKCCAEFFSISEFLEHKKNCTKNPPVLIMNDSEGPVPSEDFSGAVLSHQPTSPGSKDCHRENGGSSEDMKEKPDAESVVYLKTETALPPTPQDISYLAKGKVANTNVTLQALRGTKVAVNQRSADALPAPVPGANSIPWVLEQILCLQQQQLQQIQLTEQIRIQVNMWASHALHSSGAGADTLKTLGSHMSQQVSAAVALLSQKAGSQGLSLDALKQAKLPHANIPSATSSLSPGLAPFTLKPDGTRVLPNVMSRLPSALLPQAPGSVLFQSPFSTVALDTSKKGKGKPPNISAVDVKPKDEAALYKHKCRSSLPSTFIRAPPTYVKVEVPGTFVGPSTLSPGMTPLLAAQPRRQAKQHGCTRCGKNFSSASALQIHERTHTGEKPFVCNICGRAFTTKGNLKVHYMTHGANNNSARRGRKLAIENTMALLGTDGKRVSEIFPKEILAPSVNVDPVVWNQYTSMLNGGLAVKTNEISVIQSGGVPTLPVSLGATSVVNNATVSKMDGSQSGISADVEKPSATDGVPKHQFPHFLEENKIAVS
Strand	E-score
ACCAGACC	-0.252
ACGTTAAG	0.00687
GCTCGGGA	-0.311
CCGGTGAG	-0.332
CCTAAAGA	0.0103
AGCAAGTA	0.134
AATGCTGT	0.118
AAAGAGAG	-0.0635

Series 4
Target: Replicase polyprotein 1ab, nsp13 helicase (rep, Severe acute respiratory syndrome coronavirus 2, UniProt P0DTD1)
Mode: inhibitor
Tested at: 20 µM
Compound	inhibition [%]
Cc1cc(C)c(N)c(C#Cc2cccc(F)c2)n1	3.52
O=C(c1ccc(CN2CCOCC2)cc1)N1CCN(C2CC2)CC1	-0.52
N#Cc1ccc(Cn2cncc2CN2CCN(c3cccc(Cl)c3)C(=O)C2)cc1	3.11
N[C@H]1C(O)O[C@H](CO)[C@@H](O)[C@@H]1O (stereo partly shown)	7.66
COc1cc(C[C@@H](CO[C@@H]2O[C@H](CO)[C@@H](O)[C@H](O)[C@H]2O)[C@H](CO[C@@H]2O[C@H](CO)[C@@H](O)[C@H](O)[C@H]2O)Cc2ccc(O)c(OC)c2)ccc1O	-1.96
N#CCNC(=O)c1ccc(-c2ccnc(Nc3ccc(N4CCOCC4)cc3)n2)cc1	47.7
CS/C(N)=C(C#N)/C(C#N)=C(\N)SC	3.83
CC1(C)S[C@@H]2[C@H](NC(=O)Cc3ccccc3)C(=O)N2[C@H]1C(=O)O	-4.34
CCOc1ccc(NC(C)=O)cc1	1.21
Cc1ccc(S(=O)(=O)NC2c3ccccc3Oc3ccccc32)cc1	-0.79

A few entries again (series 1):
Compound	inhibition
CCN(CC)C(=S)SSC(=S)N(CC)CC	99.7%
COc1cc(CC2NCCc3cc(O)c(O)cc32)cc(OC)c1OC (stereo not shown)	73.9%
Sc1nnc(-c2ccccc2Cl)o1	67%
CC(C)Nc1cccnc1N1CCN(C(=O)c2cc3cc(NS(C)(=O)=O)ccc3[nH]2)CC1	82%
